Measured values gathered from unrelated publications.
Lines come from different studies, so protocols differ. ± marks the error that the study gave.
GPR62: G-protein coupled receptor 62 (GPR62, Homo sapiens, UniProt Q9BZJ7)
Sequence of UniProt Q9BZJ7 (whole entry, looked up): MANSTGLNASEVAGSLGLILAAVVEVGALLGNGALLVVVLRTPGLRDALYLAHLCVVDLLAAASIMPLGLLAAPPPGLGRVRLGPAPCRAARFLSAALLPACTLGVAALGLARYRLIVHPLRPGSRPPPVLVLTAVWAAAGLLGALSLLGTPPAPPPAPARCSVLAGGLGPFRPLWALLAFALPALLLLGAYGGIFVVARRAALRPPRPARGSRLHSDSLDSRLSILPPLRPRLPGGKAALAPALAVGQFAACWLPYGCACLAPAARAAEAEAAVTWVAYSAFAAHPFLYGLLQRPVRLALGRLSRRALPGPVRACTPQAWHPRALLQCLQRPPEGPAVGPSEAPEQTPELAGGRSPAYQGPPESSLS
Sequence of UniProt Q99500 (whole entry, looked up): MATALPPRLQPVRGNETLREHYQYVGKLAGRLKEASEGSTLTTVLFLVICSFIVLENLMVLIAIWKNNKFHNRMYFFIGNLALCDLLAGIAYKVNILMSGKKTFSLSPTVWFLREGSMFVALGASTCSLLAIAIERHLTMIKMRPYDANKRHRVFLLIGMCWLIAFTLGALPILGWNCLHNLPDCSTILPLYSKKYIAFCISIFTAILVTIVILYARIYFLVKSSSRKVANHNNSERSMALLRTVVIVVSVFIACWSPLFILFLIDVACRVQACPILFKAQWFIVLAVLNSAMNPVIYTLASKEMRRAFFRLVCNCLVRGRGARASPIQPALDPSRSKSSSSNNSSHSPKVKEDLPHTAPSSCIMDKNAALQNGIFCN
Sequence of UniProt Q86YV6 (whole entry, looked up): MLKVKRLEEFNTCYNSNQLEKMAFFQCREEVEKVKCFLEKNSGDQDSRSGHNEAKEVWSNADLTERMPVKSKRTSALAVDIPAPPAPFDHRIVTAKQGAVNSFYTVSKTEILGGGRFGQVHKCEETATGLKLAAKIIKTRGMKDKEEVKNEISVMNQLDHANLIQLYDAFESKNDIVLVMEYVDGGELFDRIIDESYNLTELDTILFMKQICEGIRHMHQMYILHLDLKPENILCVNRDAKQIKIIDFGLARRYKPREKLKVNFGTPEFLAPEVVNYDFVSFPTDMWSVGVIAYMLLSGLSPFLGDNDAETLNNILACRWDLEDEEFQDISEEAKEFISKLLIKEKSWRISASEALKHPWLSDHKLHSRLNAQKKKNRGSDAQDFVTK
Sequence of UniProt Q9NQU5 (whole entry, looked up): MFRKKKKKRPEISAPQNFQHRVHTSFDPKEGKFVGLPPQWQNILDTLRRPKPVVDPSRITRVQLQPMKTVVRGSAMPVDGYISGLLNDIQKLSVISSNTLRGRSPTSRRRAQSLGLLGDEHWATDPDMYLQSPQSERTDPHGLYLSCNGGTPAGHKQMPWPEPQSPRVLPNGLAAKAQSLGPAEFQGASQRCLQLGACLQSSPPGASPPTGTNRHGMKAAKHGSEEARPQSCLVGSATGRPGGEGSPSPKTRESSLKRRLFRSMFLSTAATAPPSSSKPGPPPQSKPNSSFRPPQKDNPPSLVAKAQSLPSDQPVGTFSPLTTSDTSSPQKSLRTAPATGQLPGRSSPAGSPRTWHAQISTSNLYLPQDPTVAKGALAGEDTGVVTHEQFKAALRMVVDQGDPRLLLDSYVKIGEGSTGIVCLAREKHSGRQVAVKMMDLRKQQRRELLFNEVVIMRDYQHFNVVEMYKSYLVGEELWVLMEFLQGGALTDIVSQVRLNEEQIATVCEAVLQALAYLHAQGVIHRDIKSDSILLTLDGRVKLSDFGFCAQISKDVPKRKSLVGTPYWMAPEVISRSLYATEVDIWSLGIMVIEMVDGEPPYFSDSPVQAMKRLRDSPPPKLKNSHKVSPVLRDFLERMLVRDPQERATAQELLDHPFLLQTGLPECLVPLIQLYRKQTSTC
Sequence of UniProt Q8NET8 (whole entry, unmodified, looked up): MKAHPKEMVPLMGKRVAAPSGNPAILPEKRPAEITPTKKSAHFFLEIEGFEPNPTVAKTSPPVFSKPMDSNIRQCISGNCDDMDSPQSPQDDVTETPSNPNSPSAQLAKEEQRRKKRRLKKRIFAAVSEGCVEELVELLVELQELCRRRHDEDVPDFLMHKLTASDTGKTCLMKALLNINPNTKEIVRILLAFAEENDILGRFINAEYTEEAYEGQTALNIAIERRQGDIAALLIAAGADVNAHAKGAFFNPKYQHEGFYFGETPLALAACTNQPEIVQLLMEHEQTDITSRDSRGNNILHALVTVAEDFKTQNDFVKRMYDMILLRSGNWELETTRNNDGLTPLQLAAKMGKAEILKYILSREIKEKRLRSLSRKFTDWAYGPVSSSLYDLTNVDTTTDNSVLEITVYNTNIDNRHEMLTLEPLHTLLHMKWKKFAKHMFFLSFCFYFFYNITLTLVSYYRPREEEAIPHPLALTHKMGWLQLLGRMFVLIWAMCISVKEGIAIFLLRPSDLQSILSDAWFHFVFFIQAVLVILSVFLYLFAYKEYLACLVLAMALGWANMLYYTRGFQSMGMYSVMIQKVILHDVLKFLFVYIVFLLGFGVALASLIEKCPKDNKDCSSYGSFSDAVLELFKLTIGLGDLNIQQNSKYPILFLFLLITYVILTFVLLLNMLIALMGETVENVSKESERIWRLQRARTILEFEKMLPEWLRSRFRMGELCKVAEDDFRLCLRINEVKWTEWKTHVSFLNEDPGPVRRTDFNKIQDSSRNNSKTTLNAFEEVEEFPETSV
Sequence of UniProt Q16531 (whole entry, looked up): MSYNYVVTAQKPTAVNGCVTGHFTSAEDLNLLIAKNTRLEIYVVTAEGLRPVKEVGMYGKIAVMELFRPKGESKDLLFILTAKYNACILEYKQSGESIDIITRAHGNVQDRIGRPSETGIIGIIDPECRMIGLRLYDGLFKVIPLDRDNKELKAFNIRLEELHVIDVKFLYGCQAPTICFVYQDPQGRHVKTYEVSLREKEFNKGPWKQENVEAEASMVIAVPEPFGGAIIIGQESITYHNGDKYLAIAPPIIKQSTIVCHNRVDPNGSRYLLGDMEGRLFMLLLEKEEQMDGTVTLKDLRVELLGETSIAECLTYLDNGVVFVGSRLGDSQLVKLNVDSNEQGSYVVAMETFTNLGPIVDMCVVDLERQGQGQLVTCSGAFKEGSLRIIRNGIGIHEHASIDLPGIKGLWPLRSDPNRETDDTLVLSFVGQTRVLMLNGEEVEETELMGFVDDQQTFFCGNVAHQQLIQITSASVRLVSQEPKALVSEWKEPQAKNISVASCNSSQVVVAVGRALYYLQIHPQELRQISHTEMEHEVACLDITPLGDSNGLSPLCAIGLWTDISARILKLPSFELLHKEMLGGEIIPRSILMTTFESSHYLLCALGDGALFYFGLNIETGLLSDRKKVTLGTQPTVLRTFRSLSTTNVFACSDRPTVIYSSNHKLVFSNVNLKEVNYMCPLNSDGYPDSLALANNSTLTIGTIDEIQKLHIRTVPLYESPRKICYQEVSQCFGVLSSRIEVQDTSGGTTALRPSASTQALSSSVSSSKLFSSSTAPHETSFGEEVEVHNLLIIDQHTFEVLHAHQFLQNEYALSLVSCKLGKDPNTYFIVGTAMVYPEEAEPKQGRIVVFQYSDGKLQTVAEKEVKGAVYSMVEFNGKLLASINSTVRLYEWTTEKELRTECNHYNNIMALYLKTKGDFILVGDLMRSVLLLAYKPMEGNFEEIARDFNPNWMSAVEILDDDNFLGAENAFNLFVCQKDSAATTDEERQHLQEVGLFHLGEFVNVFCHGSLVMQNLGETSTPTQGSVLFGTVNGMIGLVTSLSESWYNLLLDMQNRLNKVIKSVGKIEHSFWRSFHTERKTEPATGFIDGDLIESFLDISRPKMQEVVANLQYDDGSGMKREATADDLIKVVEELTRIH
Sequence of UniProt Q96GS6 (whole entry, looked up): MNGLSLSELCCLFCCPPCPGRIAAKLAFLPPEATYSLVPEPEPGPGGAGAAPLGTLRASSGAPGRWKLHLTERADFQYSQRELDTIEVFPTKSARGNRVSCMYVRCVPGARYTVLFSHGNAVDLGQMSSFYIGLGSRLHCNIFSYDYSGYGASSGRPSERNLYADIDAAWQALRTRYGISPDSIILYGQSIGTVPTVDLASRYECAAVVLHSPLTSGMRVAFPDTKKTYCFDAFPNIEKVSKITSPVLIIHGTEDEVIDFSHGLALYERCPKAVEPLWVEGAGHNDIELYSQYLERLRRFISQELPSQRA
Sequence of UniProt Q93096 (whole entry, looked up): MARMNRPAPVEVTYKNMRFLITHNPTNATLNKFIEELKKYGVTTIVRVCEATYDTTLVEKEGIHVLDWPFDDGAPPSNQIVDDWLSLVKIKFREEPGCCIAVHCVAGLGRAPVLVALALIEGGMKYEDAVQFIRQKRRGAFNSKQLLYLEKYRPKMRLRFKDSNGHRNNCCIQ

`CN1CCN(c2cc(-c3ccncc3)c(-c3ccc4ccccc4c3)nn2)CC1` has an inhibition of 8.6% (S1PR3 (Homo sapiens, UniProt Q99500); antagonist, FLIPR; 10 µM).
With `[2H]c1c([2H])c([C@]2([2H])CCCN2C(=O)C(C)(C)Oc2ccc3cn[nH]c3c2)c([2H])c([2H])c1C([2H])([2H])[2H]` the remaining binding was 95% (MYLK4 (Homo sapiens, UniProt Q86YV6); KINOMEscan; 1 µM; reference: DMSO control).
The inhibition of `COc1ccc(N2C(=O)N(c3c(C)cccc3Cl)Cc3cnc(Nc4ccc(C5CCN(C)CC5)cc4OC)nc32)nc1` is reported as 3.29% (PAK6 (Homo sapiens, UniProt Q9NQU5); kinase activity; 0.5 µM).
`CCCc1cc(O)c2c(c1)OC(C)(C)[C@@H]1CCC(C)=C[C@@H]21` has a Hill coefficient of 2.41 ± 0.31 (TRPV3 (Homo sapiens, UniProt Q8NET8, R696K); calcium uptake, agonist; HEK293S; mutant R696K, site 3).
`Oc1ccc2c3c1O[C@H]1[C@@H](O)CC[C@@]4(O)[C@@H](C2)N(CC2CCC2)CC[C@]314`: “log2 fold change” 0.494 (GPR62; β-arrestin recruitment, TANGO luminescence, item: GPR62; concentration not given; reference: basal luminescence).
`COc1cc2c(Oc3ccc4[nH]c(C)cc4c3F)ccnc2cc1OCC1(N)CC1`: “incidence of adverse event” 35.3% (item: grade 1 or 2 abdominal pain; paediatric high-risk refractory sarcoma; whole group).
`C[C@H]1CN(c2n[nH]c3nc(N[C@H]4CC[C@H](NS(=O)(=O)CCC(F)(F)F)CC4)ncc23)CCO1` has a relative abundance of 1.21 (DDB1 (Homo sapiens, UniProt Q16531); inhibitor, Kinobeads competition profiling; 20 µM; reference: vehicle).
The IC50 of `COc1cc(Nc2ncc(F)c(Nc3ccc4c(n3)NC(=O)C(C)(C)O4)n2)cc(OC)c1OC` is reported as greater than 10 µM (Protein tyrosine phosphatase type IVA 1 (Homo sapiens, UniProt Q93096); PRL-1).
For `CO[C@H]1C[C@@H]2CC[C@@H](C)[C@@](O)(O2)C(=O)C(=O)N2CCCC[C@H]2C(=O)O[C@H]([C@H](C)C[C@@H]2CC[C@@H](OC(=O)NCCOCCOCCOCCOCCOCCOCCOCCOCCC(=O)N3CCc4cc(Cn5nc(-c6ccc7oc(N)nc7c6)c6c(N)ncnc65)ccc4C3)[C@H](OC)C2)C[C@@H](O)[C@H](C)/C=C(\C)[C@@H](O)[C@@H](OC)C(=O)[C@H](C)C[C@H](C)/C=C/C=C/C=C/1C`, the fatigue incidence was 12.5% (patients with advanced solid tumours; intravenous, 10 mg weekly, grade 3 or higher).
Under “log2 fold change”, `CC[C@H](C)[C@@H]1NC(=O)[C@@H]2CCCN2C(=O)[C@H](CC(C)C)NC(=O)[C@H](CC(C)C)NC(=O)CNC(=O)[C@@H](NC(=O)[C@@H](NC(=O)[C@H](CC(=O)O)NC(=O)CNC(=O)[C@@H](NC(=O)[C@H](C)NC(=O)CNC(=O)[C@H](CCCCN)NC(=O)[C@H](CC(C)C)NC(=O)[C@H](CC(C)C)NC(=O)[C@H](CCCCN)NC(=O)CNC(=O)[C@@H](NC(=O)[C@@H](N)CC(C)C)C(C)C)C(C)C)C(C)C)CSSC[C@@H](C(=O)O)NC1=O` is recorded as -1.57 (RNA-seq, item: Fos mRNA; mouse traumatic brain injury, frontal cortex and hippocampus; dose not given; reference: TBI plus compound vs TBI).
Under “log2 fold change”, `CC[C@H](C)[C@H](NC(=O)CNC(=O)[C@@H](N)CCCCN)C(=O)N[C@@H](CC(C)C)C(=O)N[C@@H](CCCCN)C(=O)N[C@@H](CCCNC(=N)N)C(=O)N[C@@H](CCC(=O)O)C(=O)N[C@@H](CCCCN)C(=O)N[C@@H](CCCNC(=N)N)C(=O)N[C@@H](CC(C)C)C(=O)N[C@@H](CCCNC(=N)N)C(=O)N[C@@H](CCCNC(=N)N)C(=O)N[C@@H](CCCCN)C(=O)N[C@@H](CC(N)=O)C(=O)N[C@H](C(=O)N[C@@H](Cc1c[nH]cn1)C(=O)N[C@@H](Cc1c[nH]c2ccccc12)C(=O)N1CCC[C@H]1C(=O)N[C@@H](CCC(=O)O)C(=O)N[C@@H](CCC(=O)O)C(=O)NCC(=O)N[C@@H](CCCCN)C(=O)N[C@@H](CC(C)C)C(=O)N[C@@H](CCCNC(=N)N)C(=O)N[C@@H](CCC(=O)O)C(=O)N[C@@H](Cc1ccccc1)C(=O)N[C@@H](Cc1ccccc1)C(=O)N[C@@H](Cc1ccccc1)C(=O)N[C@@H](Cc1ccccc1)C(=O)N[C@@H](CCC(=O)O)C(=O)N[C@@H](CC(C)C)C(=O)N[C@@H](CC(=O)O)C(=O)N[C@@H](CCC(=O)O)C(=O)N[C@@H](C)C(=O)N[C@@H](CCC(=O)O)C(=O)N[C@@H](CCCNC(=N)N)C(=O)N[C@H](C(=O)N[C@@H](CC(N)=O)C(=O)N[C@H](C(=O)O)C(C)C)C(C)C)C(C)C` is recorded as -0.67 (HeLa and HEK-293T cells; phosphatase bead binding, competitive inhibitor, PIB pulldown iBAQ LC-MS/MS, item: PPP6C; concentration not given; reference: untreated control).
The median ratio of `O=C(c1ccc(Cl)cc1)N1CCN2C(=O)N(OC(=O)N3CCOc4ccccc43)C(=O)C2C1` (stereo not shown) is reported as 1.1 (Alpha/beta hydrolase domain-containing protein 17A (ABHD17A, Homo sapiens, UniProt Q96GS6); enzyme activity, inhibitor, MS-based ABPP; SW-620 in situ; 10 µM, 2 h, 37 °C; reference: compound over DMSO, lower = stronger inhibition).
`COc1cc(N)c(Cl)cc1C(=O)NC1CN2CCC1CC2` (stereo not shown): “log2 fold change” 0.172 (GPR62; β-arrestin recruitment, TANGO luminescence, item: GPR62; concentration not given; reference: basal luminescence).

Repeated from above:
Under “log2 fold change”, `CC[C@H](C)[C@H](NC(=O)CNC(=O)[C@@H](N)CCCCN)C(=O)N[C@@H](CC(C)C)C(=O)N[C@@H](CCCCN)C(=O)N[C@@H](CCCNC(=N)N)C(=O)N[C@@H](CCC(=O)O)C(=O)N[C@@H](CCCCN)C(=O)N[C@@H](CCCNC(=N)N)C(=O)N[C@@H](CC(C)C)C(=O)N[C@@H](CCCNC(=N)N)C(=O)N[C@@H](CCCNC(=N)N)C(=O)N[C@@H](CCCCN)C(=O)N[C@@H](CC(N)=O)C(=O)N[C@H](C(=O)N[C@@H](Cc1c[nH]cn1)C(=O)N[C@@H](Cc1c[nH]c2ccccc12)C(=O)N1CCC[C@H]1C(=O)N[C@@H](CCC(=O)O)C(=O)N[C@@H](CCC(=O)O)C(=O)NCC(=O)N[C@@H](CCCCN)C(=O)N[C@@H](CC(C)C)C(=O)N[C@@H](CCCNC(=N)N)C(=O)N[C@@H](CCC(=O)O)C(=O)N[C@@H](Cc1ccccc1)C(=O)N[C@@H](Cc1ccccc1)C(=O)N[C@@H](Cc1ccccc1)C(=O)N[C@@H](Cc1ccccc1)C(=O)N[C@@H](CCC(=O)O)C(=O)N[C@@H](CC(C)C)C(=O)N[C@@H](CC(=O)O)C(=O)N[C@@H](CCC(=O)O)C(=O)N[C@@H](C)C(=O)N[C@@H](CCC(=O)O)C(=O)N[C@@H](CCCNC(=N)N)C(=O)N[C@H](C(=O)N[C@@H](CC(N)=O)C(=O)N[C@H](C(=O)O)C(C)C)C(C)C)C(C)C` is recorded as -0.67 (HeLa and HEK-293T cells; phosphatase bead binding, competitive inhibitor, PIB pulldown iBAQ LC-MS/MS, item: PPP6C; concentration not given; reference: untreated control).
